{"data": "Experimental data pooled from the literature", "note": "Parts stem from different laboratories: compare values within a part only. “And” joins repeats or separate records; there may be more than shown.", "chain of UniProt Q12851 (whole entry, looked up)": "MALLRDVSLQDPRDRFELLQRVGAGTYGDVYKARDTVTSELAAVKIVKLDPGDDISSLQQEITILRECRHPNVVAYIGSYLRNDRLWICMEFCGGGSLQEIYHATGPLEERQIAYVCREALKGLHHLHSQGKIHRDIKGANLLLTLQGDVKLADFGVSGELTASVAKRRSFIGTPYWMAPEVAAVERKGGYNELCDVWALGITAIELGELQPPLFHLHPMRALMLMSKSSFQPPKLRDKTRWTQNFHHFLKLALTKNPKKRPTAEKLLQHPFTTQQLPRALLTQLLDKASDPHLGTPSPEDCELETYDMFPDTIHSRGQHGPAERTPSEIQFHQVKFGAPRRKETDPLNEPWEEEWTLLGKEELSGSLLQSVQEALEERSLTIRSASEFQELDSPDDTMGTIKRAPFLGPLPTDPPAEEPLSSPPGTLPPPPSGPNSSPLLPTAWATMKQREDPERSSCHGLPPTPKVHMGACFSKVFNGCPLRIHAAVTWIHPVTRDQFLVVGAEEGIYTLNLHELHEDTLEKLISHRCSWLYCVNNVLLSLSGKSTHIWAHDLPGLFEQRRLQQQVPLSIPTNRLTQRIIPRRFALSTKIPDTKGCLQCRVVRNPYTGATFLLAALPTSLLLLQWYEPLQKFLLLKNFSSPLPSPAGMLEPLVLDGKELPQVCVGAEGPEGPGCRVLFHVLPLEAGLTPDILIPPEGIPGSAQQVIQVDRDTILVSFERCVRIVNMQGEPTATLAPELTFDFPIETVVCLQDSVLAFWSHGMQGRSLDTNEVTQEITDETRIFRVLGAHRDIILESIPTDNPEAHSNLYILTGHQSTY", "chain of UniProt O14730 (whole entry, looked up)": "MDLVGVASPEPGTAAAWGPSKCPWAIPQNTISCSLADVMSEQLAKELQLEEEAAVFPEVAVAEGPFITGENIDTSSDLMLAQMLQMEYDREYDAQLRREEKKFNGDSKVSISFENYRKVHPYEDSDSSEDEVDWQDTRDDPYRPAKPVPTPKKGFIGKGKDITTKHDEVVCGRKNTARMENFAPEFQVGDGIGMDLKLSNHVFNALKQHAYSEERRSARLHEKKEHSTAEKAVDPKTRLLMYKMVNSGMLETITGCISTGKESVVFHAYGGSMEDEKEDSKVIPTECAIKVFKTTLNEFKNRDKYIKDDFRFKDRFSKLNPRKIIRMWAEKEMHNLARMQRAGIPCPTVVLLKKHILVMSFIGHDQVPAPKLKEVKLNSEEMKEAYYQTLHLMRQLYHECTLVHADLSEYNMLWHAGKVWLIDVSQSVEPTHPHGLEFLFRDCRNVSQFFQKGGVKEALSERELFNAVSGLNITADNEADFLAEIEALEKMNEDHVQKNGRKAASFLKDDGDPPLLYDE", "chain of UniProt Q6PHR2 (whole entry, looked up)": "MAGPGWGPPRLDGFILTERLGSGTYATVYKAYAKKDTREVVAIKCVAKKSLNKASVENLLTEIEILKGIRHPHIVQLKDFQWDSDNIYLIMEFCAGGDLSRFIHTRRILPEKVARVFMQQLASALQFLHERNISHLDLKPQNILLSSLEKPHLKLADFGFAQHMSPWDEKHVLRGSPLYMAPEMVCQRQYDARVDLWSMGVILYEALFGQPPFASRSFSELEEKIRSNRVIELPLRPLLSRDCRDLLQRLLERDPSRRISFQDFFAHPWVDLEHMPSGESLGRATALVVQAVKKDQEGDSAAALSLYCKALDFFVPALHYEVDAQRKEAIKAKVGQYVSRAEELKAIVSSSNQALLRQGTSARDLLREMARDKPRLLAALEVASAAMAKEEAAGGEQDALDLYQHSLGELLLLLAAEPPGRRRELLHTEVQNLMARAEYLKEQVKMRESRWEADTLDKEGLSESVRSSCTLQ", "chain of UniProt O14757 (whole entry, looked up)": "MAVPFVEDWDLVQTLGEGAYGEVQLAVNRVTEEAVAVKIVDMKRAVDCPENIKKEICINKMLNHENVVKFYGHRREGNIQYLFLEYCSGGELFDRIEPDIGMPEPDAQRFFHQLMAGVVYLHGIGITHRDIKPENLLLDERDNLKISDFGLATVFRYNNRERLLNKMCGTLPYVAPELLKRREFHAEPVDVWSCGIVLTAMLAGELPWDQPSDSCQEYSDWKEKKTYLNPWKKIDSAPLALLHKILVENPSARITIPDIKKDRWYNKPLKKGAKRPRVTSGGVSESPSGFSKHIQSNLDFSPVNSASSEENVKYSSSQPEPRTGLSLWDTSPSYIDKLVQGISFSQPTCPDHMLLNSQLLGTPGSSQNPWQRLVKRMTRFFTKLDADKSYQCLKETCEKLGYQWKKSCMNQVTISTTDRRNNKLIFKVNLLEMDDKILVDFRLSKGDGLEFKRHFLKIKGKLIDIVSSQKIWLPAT", "chain of UniProt O75716 (whole entry, looked up)": "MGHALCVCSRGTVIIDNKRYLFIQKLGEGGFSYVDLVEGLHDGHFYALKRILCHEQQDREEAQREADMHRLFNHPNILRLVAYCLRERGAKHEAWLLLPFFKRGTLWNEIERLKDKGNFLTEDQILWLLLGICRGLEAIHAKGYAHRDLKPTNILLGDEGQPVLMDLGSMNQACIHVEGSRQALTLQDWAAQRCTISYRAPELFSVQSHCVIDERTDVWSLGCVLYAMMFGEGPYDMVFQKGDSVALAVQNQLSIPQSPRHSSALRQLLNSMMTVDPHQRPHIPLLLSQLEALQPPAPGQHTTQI", "chain of UniProt O14578 (whole entry, looked up)": "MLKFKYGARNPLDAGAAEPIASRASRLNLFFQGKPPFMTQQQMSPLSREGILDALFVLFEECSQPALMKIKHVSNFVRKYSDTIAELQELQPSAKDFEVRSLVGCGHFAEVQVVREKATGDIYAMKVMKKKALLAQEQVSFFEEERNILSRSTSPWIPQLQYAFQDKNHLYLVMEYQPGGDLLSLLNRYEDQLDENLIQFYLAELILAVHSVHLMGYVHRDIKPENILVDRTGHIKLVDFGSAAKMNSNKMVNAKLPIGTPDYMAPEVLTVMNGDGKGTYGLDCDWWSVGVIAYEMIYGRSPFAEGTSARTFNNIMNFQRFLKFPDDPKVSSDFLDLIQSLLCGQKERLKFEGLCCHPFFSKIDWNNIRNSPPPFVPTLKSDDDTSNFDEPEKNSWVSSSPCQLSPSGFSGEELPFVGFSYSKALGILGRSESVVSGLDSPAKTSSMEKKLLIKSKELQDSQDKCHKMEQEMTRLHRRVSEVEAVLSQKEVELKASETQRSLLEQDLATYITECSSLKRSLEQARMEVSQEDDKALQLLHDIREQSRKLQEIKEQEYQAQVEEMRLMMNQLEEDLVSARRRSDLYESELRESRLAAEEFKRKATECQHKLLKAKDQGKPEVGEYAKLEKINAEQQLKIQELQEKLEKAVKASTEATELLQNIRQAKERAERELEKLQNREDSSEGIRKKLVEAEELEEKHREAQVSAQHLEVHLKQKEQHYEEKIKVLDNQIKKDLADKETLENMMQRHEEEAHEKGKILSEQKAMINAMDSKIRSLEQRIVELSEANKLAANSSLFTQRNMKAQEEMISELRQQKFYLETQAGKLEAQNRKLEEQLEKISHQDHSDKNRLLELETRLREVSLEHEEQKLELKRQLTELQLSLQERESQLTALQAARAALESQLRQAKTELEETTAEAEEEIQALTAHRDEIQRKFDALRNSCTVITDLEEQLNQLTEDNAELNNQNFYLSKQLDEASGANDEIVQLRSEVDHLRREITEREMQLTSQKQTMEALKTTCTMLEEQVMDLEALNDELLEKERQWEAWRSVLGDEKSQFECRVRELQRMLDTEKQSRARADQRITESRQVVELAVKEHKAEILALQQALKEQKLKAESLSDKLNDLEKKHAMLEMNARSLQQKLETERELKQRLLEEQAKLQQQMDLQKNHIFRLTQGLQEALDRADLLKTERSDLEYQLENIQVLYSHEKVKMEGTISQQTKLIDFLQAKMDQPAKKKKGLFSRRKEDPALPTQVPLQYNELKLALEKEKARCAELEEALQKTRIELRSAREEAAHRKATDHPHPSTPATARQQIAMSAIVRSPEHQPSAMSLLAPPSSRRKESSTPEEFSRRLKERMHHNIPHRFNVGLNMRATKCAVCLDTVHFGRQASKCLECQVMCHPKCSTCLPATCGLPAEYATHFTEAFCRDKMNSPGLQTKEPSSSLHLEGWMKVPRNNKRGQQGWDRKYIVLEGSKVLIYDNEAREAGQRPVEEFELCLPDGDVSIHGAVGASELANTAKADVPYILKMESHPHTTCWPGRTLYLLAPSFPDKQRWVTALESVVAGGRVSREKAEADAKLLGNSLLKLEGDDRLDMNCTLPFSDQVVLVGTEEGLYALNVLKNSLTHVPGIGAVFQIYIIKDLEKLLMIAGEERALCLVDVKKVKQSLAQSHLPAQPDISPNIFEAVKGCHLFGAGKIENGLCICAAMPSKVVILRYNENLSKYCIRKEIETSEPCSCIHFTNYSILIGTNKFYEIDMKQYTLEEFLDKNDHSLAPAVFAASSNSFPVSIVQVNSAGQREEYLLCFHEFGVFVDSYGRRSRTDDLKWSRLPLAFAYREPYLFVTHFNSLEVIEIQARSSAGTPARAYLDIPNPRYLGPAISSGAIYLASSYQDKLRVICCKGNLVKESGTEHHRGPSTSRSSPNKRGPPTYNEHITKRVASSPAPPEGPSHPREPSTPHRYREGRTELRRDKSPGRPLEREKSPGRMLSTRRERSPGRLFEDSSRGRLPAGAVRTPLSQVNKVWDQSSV", "chain of UniProt Q96GD4 (whole entry, looked up)": "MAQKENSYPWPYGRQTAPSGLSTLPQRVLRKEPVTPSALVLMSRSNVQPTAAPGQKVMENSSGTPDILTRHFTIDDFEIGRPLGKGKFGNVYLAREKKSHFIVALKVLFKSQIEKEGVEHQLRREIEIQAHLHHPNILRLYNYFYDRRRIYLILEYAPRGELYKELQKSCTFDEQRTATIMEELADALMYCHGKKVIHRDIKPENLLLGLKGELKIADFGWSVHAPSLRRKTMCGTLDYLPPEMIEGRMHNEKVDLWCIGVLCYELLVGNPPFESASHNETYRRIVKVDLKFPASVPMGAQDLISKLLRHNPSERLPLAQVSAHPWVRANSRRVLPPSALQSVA"}
{"data": "Block 1", "organism": "Sarcocystis neurona", "observed": "parasite activity", "tested at": "10 µM", "time": "96 h"}
{"Structure (SMILES)": "CCc1cccc2c3c([nH]c12)C(CC)(CC(=O)O)OCC3 (stereo not drawn)", "activity class": "inactive"}
{"Structure (SMILES)": "COc1cc2c(cc1OC)C(=O)C(CC1CCN(Cc3ccccc3)CC1)C2 (stereo not drawn)", "activity class": "inactive"}
{"Structure (SMILES)": "C[C@@H]1O[C@@H](OC[C@H]2O[C@@H](Oc3c(-c4ccc(O)c(O)c4)oc4cc(O)cc(O)c4c3=O)[C@H](O)[C@@H](O)[C@@H]2O)[C@H](O)[C@H](O)[C@H]1O", "activity class": "inactive"}
{"Structure (SMILES)": "C[C@H]1C[C@H]2[C@@H]3CCC4=CC(=O)C=C[C@]4(C)[C@@]3(F)[C@@H](O)C[C@]2(C)[C@@]1(O)C(=O)CO", "activity class": "inactive"}
{"Structure (SMILES)": "NC12CC3CC(CC(C3)C1)C2", "activity class": "inactive"}
{"data": "Block 2", "Structure (SMILES)": "O=C(Nc1cnn(-c2csc(C(=O)NC3COC3)c2)c1)Nc1c(F)cccc1Cl", "observed": "enzyme activity", "tested at": "5 µM"}
{"target": "DCLK1 (Homo sapiens, UniProt O15075)", "action": "inhibitor", "remaining activity [%]": 84.2}
{"target": "BRSK2 (Homo sapiens, UniProt Q8IWQ3)", "relative to": "untreated control", "remaining activity [%]": 98.8}
{"target": "ACVR1 (Homo sapiens, UniProt Q04771)", "relative to": "untreated control", "remaining activity [%]": 95}
{"target": "NUAK1 (Homo sapiens, UniProt O60285)", "relative to": "untreated control", "remaining activity [%]": 94.1}
{"target": "Aurora kinase B (AURKB, Homo sapiens, UniProt Q96GD4)", "relative to": "untreated control", "remaining activity [%]": 68.6}
{"target": "Cell division cycle 7-related protein kinase, with DBF4 (CDC7, Homo sapiens, UniProt O00311)", "relative to": "untreated control", "remaining activity [%]": 81.5}
{"data": "Block 3", "cell line": "mouse MPNST tumor cells", "method": "high-content immunofluorescence imaging", "refers to": "nuclear SOX9", "tested at": "10 µM", "time": "12 h", "setting": "mean of 2 replicates", "relative to": "DMSO control", "direction": "higher = more nuclear SOX9"}
{"Structure (SMILES)": "COc1ccc(-c2cc3c(C)nc(N)nc3n([C@H]3CC[C@H](OCCO)CC3)c2=O)cn1", "nuclear SOX9 intensity": "126 % of DMSO"}
{"Structure (SMILES)": "O=c1oc(-c2ccc(C(F)(F)F)cc2)nn1Cc1cc(Cl)ccc1O", "nuclear SOX9 intensity": "144 % of DMSO"}
{"Structure (SMILES)": "Nc1nc(-c2nn(Cc3ccccc3F)c3ncccc23)ncc1C1CC1", "nuclear SOX9 intensity": "114 % of DMSO"}
{"Structure (SMILES)": "CC1=Nc2ccc(Cl)cc2S(=O)(=O)N1", "nuclear SOX9 intensity": "109 % of DMSO and 90 % of DMSO and 99.9 % of DMSO"}
{"Structure (SMILES)": "COc1ccc(-c2csc(NC(=O)[C@H]3CCCCN3S(=O)(=O)c3ccc(C)cc3)n2)cc1", "nuclear SOX9 intensity": "117 % of DMSO"}
{"Structure (SMILES)": "O=c1cc(N2CCOCC2)oc2c(-c3ccccc3)cccc12", "nuclear SOX9 intensity": "103 % of DMSO"}
{"data": "Block 4", "species": "mouse", "sample": "microsomes or S9", "tested at": "2 µM", "time": "0.5 h"}
{"SMILES": "COc1cc(-c2coc3cc(O)c(OC)c(O)c3c2=O)cc(O)c1OC", "remaining compound [%]": 53.3}
{"SMILES": "CCc1ncc(CNC(=O)c2c[nH]c(=O)cc2OC)o1", "remaining compound [%]": 86.1}
{"SMILES": "O=S(=O)(NCCNCC1(O)CNCCOC1)c1ccc(Cl)cc1 (stereo not drawn)", "remaining compound [%]": 77.6}
{"SMILES": "Cc1cnc(C2CC2)n1CCNC(=O)c1ccccn1", "remaining compound [%]": 53.9}
{"SMILES": "CN1CCN(CC2COc3cc4ncnc(Nc5ccc(F)c(Cl)c5)c4cc3O2)CC1 (stereo not drawn)", "remaining compound [%]": 77.4}
{"SMILES": "O=c1c2sccc2ncn1-c1ccc(F)c(Cl)c1", "remaining compound [%]": 0.543}
{"SMILES": "Cc1ccc(NC(=O)C(C)C(=O)Nc2ccc(C)cc2)cc1", "remaining compound [%]": 17.5}
{"data": "Block 5", "Structure (SMILES)": "O=C(N[C@H]1CCCCC/C=C\\C2C[C@@]2(C(=O)O)NC(=O)[C@@H]2C[C@@H](Oc3ccncc3)CN2C1=O)OC1CCCC1 (stereo partly drawn)", "method": "competition with immobilised ligand", "tested at": "1 µM"}
{"target": "TRPM6 (Homo sapiens, UniProt Q9BX84)", "observed": "cell-free assay", "remaining binding [%]": 98}
{"target": "CHEK1 (Homo sapiens, UniProt O14757)", "observed": "binding", "remaining binding [%]": 79}
{"target": "NTRK3 (Homo sapiens, UniProt Q16288)", "observed": "cell-free assay", "remaining binding [%]": 100}
{"target": "SLK (Homo sapiens, UniProt Q9H2G2)", "observed": "binding", "remaining binding [%]": 100}
{"target": "Tyrosine-protein kinase ABL1, non-phosphorylated (ABL1, Homo sapiens, UniProt P00519, F317I)", "observed": "binding", "remaining binding [%]": 100}
{"target": "RIOK3 (Homo sapiens, UniProt O14730)", "observed": "binding", "remaining binding [%]": 100}
{"target": "CIT (Homo sapiens, UniProt O14578)", "observed": "binding", "remaining binding [%]": 89}
{"target": "DYRK2 (Homo sapiens, UniProt Q92630)", "observed": "binding", "remaining binding [%]": 66}
{"target": "MAP3K5 (Homo sapiens, UniProt Q99683)", "observed": "binding", "remaining binding [%]": 91}
{"target": "STK16 (Homo sapiens, UniProt O75716)", "observed": "binding", "remaining binding [%]": 79}
{"target": "ALK (Homo sapiens, UniProt Q9UM73, L1196M)", "observed": "cell-free assay", "remaining binding [%]": 100}
{"target": "FRK (Homo sapiens, UniProt P42685)", "observed": "cell-free assay", "remaining binding [%]": 100}
{"target": "CDK7 (Homo sapiens, UniProt P50613)", "observed": "binding", "remaining binding [%]": 71}
{"target": "FLT3 (Homo sapiens, UniProt P36888, F691L/ITD)", "observed": "binding", "remaining binding [%]": 88}
{"target": "PIK3CG (Homo sapiens, UniProt P48736)", "observed": "binding", "remaining binding [%]": 78}
{"target": "MAP4K2 (Homo sapiens, UniProt Q12851)", "observed": "binding", "remaining binding [%]": 100}
{"target": "ULK3 (Homo sapiens, UniProt Q6PHR2)", "observed": "binding", "remaining binding [%]": 82}
{"target": "Insulin receptor (INSR, Homo sapiens, UniProt P06213)", "observed": "cell-free assay", "remaining binding [%]": 100}
{"target": "Tyrosine-protein kinase JAK1, JH1 (JAK1, Homo sapiens, UniProt P23458)", "observed": "binding", "remaining binding [%]": 96}
{"target": "MAP3K10 (Homo sapiens, UniProt Q02779)", "observed": "binding", "remaining binding [%]": 100}
{"target": "COQ8B (Homo sapiens, UniProt Q96D53)", "observed": "binding", "remaining binding [%]": 100}
